# Experimental data collected from several papers.
# Numbers after ± are the reported error.
# Technique: steady-state kinetics
# B1: enzyme (UniProt A0A2T5C445); chain MKSKQLNTDLFKVQAKQQIRLKNYDPASCNGFANRKEAEHQLKQDIKELADLQYQLYAENKRSVLIVFQAMDAAGKDGSIRHVFSGLNPQGCKVYSFKSPSANELDHDYLWRHYNKLPPRGEIGIFNRSHYENVLITRVHPEFLLNENLPDVHATNDITTEFWERRYRQIRDFEQTLTENGTTIIKFFLHLSKDEQKKRFMERIRKPAKNWKFSSADIRERQYWDDYQHAYEQAMRATSTEEAPWYIIPADNKWFTHVAIGNIIVETLQQMNIQMPEISSEEKDALKKAKKKLQNE
# B2: enzyme (Mortierella alpina, UniProt U5Y6A8); chain MAPPHVVDEQVRRRIVVEDEIQSKKQFERNYVPMDFTIKEIRDAIPAHLFIRDTTKSILHVVKDLVTIAIVFYCATFIETLPSLALRVPAWITYWIIQGTVMVGPWILAHECGHGAFSDSKTINTIFGWVLHSALLVPYQAWAMSHSKHHKGTGSMSKDVVFIPATRSYKGLPPLEKPAAEEEVLEQEHHHHEESIFAETPIYTLGALFFVLTLGWPLYLIMNFSGHEAPHWVNHFQTVAPLYEPHQRKNIFYSNCGIVAMGSILTYLSMVFSPLTVFMYYGIPYLGVNAWIVCITYLQHTDPKVPHFRDNEWNFQRGAACTIDRSFGTIVNHLHHHIGDSHQCHHMFSQMPFYNAVEATKHLKAKLGKYYIFDDTPIAKALYRNWRECKFVEDEGDVVFYKH
# B3: asnB E349Q (Escherichia coli, UniProt P22106); chain CSIFGVFDIKTDAVELRKKALELSRLMRHRGPDWSGIYASDNAILAHERLSIVDVNAGAQPLYNQQKTHVLAVNGEIYNHQALRAEYGDRYQFQTGSDCEVILALYQEKGPEFLDDLQGMFAFALYDSEKDAYLIGRDHLGIIPLYMGYDEHGQLYVASEMKALVPVCRTIKEFPAGSYLWSQDGEIRSYYHRDWFDYDAVKDNVTDKNELRQALEDSVKSHLMSDVPYGVLLSGGLDSSIISAITKKYAARRVEDQERSEAWWPQLHSFAVGLPGSPDLKAAQEVANHLGTVHHEIHFTVQEGLDAIRDVIYHIETYDVTTIRASTPMYLMSRKIKAMGIKMVLSGQGSDEVFGGYLYFHKAPNAKELHEETVRKLLALHMYDCARANKAMSAWGVEARVPFLDKKFLDVAMRINPQDKMCGNGKMEKHILRECFEAYLPASVAWRQKEQFSDGVGYSWIDTLKEVAAQQVSDQQLETARFRFPYNTPTSKEAYLYREIFEELFPLPSAAECVPGGPSVACSSAKAIEWDEAFKKMDDPSGRAVGVHQSAYK
# B4: PduO F112H (Limosilactobacillus reuteri, UniProt Q50EJ2); chain MKIYTKNGDKGQTRIIGKQILYKNDPRVAAYGEVDELNSWVGYTKSLINSHTQVLSNELEEIQQLLFDCGHDLATPADDERHSFKFKQEQPTVWLEEKIDNYTQVVPAVKKHILPGGTQLASALHVARTITRRAERQIVQLMREEQINQDVLIFINRLSDYFFAAARYANYLEQQPDMLYRNSKDVFR
# B5: protein (Stereum hirsutum, UniProt P9WEW0); chain MTVVDSPQRFYIPNCLEYWPWPRHINPHYQEVKKASAAWAESFGAFNPKAQHAYNACDFNLLASLAYPLESEERLRTGCDLMNMFFVFDEYSDVSSPKDVIQQAAIIMDALRNPYAPRPDDEWVGGEVTRQFWKRAIKTATAGAQRRFIDAFESYTQSVVQQAKDRHHGFIRDVDSYLEMRRETIGAKPSFVVLQMDMTLPDEVLAHPVIQQLSALSTDMICLGNDICSYNVEQARGDDLHNIITIAMNQFDIDIAGAMDWVVKYHAKLERKFLYLYNNGLPSWGKELDPQVERYVCGLGNWVRASDQWGFESERYFGKKGKEIFKRRWVNLMQPERAQDIGPTLVDGTRL
# B6: UGT84B1 (Arabidopsis thaliana, UniProt O22182); chain MGSSEGQETHVLMVTLPFQGHINPMLKLAKHLSLSSKNLHINLATIESARDLLSTVEKPRYPVDLVFFSDGLPKEDPKAPETLLKSLNKVGAMNLSKIIEEKRYSCIISSPFTPWVPAVAASHNISCAILWIQACGAYSVYYRYYMKTNSFPDLEDLNQTVELPALPLLEVRDLPSFMLPSGGAHFYNLMAEFADCLRYVKWVLVNSFYELESEIIESMADLKPVIPIGPLVSPFLLGDGEEETLDGKNLDFCKSDDCCMEWLDKQARSSVVYISFGSMLETLENQVETIAKALKNRGLPFLWVIRPKEKAQNVAVLQEMVKEGQGVVLEWSPQEKILSHEAISCFVTHCGWNSTMETVVAGVPVVAYPSWTDQPIDARLLVDVFGIGVRMRNDSVDGELKVEEVERCIEAVTEGPAAVDIRRRAAELKRVARLALAPGGSSTRNLDLFISDITIA
# B7: Tcur_2987 W263S (Thermomonospora curvata, UniProt D1A807); chain ACSEERAAGARPSATQTTGTATEPFHGPHQAGIATPPQAHAVFLGLDLRKGTGRKELGRLMRLLTDDARRLTQGRPALADPEPDLAPLPSRLTFTFGFGPGLFKAAGLEKQRPEGLRPLPPFKVDRLEDRWSGGDLLVQICCDDPITLAHALRMTVKDARAFTRVRWVQRGFRRSPGVQSSGATQRNLMGQLDGTVNPVPGTADFDQAVWVQDGPEWLRGGTTLVLRRIRMELEKSDEADPAGKEFAVGRRLTSGAPLTGRHEHDEPDFDAVDSAGFPVIAENAHIRLAHVDSPRLRMLRRPYNYDEGLTADGRSDAGLLFAAYQADIDRQFIPVQRRLDEGGDLLNLWTTPIGSAVFAIPPGCDENGWIGQGLLG
# B8: TaNK (Thermoplasma acidophilum, UniProt Q9HJT3); chain MRFLAYFGHLNIDVLISVDSIPREGSVNVKDLRPRFGGTAGNFAIVAQKFRIPFDLYSAVGMKTHREYLAMIESMGINTGHVEKFEDESGPICYIATDGKKQVSFMHQGAMEKWKPQLADEYEYVHFSTGPNYLDMAKSIRSKIIFDPSQEIHKYSKDELKKFHEISYMSIFNDHEYRVFREMTGLSSPKVTTIVTNGERGSSLFMDGKKYDFPAIPSSGDTVGAGDSFRAGLYLALYNRRSIEKGMIYGTIIAHHVIDDGIENFSLNMEDLERETENYRRMFTKRS
# UniProt Q6WZB0, sequence (whole entry, looked up): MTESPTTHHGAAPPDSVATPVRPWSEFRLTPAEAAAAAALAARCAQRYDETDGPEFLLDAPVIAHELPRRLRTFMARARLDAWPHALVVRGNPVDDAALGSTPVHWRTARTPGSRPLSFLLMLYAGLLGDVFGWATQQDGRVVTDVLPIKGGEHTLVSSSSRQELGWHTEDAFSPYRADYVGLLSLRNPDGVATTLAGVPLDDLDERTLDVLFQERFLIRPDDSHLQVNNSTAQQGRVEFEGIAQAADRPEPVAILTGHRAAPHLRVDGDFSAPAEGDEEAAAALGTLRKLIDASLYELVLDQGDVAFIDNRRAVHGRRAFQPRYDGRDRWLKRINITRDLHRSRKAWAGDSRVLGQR
# UniProt P45370, sequence (whole entry, looked up): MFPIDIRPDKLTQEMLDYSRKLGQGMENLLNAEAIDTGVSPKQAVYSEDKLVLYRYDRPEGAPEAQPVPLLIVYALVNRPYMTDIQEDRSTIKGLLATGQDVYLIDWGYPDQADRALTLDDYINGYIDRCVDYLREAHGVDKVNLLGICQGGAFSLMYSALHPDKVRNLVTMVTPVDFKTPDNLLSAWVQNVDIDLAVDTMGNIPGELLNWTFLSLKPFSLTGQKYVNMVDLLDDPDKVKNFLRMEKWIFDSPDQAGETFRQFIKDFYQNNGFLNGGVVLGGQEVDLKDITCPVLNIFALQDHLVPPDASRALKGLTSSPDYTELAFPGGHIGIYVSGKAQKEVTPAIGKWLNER
# UniProt P76044, sequence (whole entry, looked up): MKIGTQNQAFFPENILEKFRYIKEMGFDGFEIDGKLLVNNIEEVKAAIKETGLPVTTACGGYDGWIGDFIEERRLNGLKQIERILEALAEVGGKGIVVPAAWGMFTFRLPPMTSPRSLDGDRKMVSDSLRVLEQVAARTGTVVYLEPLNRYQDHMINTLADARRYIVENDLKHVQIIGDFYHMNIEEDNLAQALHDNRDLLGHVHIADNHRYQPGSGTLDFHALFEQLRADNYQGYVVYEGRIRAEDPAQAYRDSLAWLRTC
# UniProt Q9LTH3, sequence (whole entry, looked up): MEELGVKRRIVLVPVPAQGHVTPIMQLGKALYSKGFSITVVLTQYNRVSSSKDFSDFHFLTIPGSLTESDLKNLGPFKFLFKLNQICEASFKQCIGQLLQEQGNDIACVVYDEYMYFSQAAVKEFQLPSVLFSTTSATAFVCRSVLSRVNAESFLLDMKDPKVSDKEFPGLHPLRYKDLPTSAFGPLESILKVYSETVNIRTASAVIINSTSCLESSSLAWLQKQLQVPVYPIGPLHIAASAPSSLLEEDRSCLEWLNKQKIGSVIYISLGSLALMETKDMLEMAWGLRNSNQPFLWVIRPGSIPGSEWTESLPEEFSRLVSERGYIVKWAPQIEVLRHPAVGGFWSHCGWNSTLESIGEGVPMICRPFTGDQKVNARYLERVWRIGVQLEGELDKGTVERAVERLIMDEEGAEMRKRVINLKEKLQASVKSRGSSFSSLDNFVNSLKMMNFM
# UniProt O60656, sequence (whole entry, looked up): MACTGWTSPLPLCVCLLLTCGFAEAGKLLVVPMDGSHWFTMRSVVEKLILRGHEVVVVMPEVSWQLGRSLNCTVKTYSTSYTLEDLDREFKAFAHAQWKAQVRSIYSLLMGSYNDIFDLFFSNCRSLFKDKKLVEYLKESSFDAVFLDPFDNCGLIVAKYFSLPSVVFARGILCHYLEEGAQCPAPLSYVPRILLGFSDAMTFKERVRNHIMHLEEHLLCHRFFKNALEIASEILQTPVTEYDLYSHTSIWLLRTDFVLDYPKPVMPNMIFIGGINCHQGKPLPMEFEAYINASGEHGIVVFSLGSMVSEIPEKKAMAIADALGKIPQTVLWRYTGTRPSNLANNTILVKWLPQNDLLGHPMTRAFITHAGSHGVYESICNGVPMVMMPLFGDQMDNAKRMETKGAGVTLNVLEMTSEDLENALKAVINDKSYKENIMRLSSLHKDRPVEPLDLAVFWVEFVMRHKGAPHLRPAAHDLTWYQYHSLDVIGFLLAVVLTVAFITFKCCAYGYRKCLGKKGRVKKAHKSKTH
# UniProt G1UII1, sequence (whole entry, looked up): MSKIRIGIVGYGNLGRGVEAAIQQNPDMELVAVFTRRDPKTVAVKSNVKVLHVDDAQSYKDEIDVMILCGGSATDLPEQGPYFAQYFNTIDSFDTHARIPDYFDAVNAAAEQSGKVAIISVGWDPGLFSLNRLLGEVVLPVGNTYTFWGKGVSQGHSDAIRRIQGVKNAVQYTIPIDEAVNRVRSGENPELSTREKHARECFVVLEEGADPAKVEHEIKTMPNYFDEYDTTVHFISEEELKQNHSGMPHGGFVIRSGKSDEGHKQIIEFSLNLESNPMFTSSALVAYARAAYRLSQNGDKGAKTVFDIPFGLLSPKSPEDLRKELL
Substance,substrate,pH,temperature,setting,together with,endpoint,result
"protein (Allochromatium vinosum, UniProt P45370)",C=CC[C@@H](O)CC(=O)SCCNC(=O)CCNC(=O)[C@H](O)C(C)(C)COP(=O)(O)OP(=O)(O)OC[C@H]1O[C@@H](n2cnc3c(N)ncnc32)[C@H](O)[C@@H]1OP(=O)(O)O,pH 7.8,30 °C,,,kcat/Km,254000 M⁻¹ s⁻¹
"protein (Shewanella denitrificans, UniProt Q12KT8)",Cc1cn([C@H]2C[C@H](O)[C@@H](COP(=O)(O)OP(=O)(O)O[C@H]3O[C@H](C)[C@H](O)[C@H](N)[C@H]3O)O2)c(=O)[nH]c1=O,pH 8.5,,,acetyl-CoA 2 mM,kcat/Km,98000 M⁻¹ s⁻¹
"UGT1A9 (Homo sapiens, UniProt O60656)",COc1ccc(-c2oc3cc(O)cc(O)c3c(=O)c2OC)cc1O,pH 7.4,37 °C,,,Km,1.64 µM
B1 (enzyme),Nc1ncnc2c1ncn2[C@@H]1O[C@H](COP(=O)(O)O)[C@@H](O)[C@H]1O,pH 8,30 °C,,,kcat/Km,33000 M⁻¹ s⁻¹
"protein (Actinidia chinensis, UniProt H9M5U5)",CC(C)=CCC/C(C)=C/COP(=O)(O)OP(=O)(O)O,pH 7.5,room temperature,labelled compound,MgCl2 20 mM,kcat/Km,69000 M⁻¹ s⁻¹
"POLH (Homo sapiens, UniProt Q9Y253)",Cc1cn([C@H]2C[C@H](O)[C@@H](COP(=O)(O)OP(=O)(O)OP(=O)(O)O)O2)c(=O)[nH]c1=O,pH 8,37 °C,misinsertion opposite dT,Mg2+,kcat/Km,30 ± 1.67 M⁻¹ s⁻¹
"ycjR (Escherichia coli, UniProt P76044)",CO[C@H]1O[C@H](CO)[C@@H](O)C(=O)[C@H]1O,pH 8,30 °C,,"MnCl2 0.5 mM, NADH 0.3 mM",kcat/Km,520 ± 77 M⁻¹ s⁻¹
"Ptb (Listeria monocytogenes, UniProt Q8Y7B7)",CCCC(=O)SCCNC(=O)CCNC(=O)[C@H](O)C(C)(C)COP(=O)(O)OP(=O)(O)OC[C@H]1O[C@@H](n2cnc3c(N)ncnc32)[C@H](O)[C@@H]1OP(=O)(O)O,pH 7.5,25 °C,apparent,,kcat/Km,8.43e+06 M⁻¹ s⁻¹
B2 (enzyme),CCCCC/C=C\C/C=C\C/C=C\CCCCC(=O)SCCNC(=O)CCNC(=O)[C@H](O)C(C)(C)COP(=O)(O)OP(=O)(O)OC[C@H]1O[C@@H](n2cnc3c(N)ncnc32)[C@H](O)[C@@H]1OP(=O)(O)O,pH 7.5,28 °C,,,kcat/Km,4170 M⁻¹ s⁻¹
"enzyme (Arabidopsis thaliana, UniProt Q9LTH3)",O=c1ccn([C@@H]2O[C@H](CO[P@@](=O)(O)O[P@@](=O)(O)O[C@H]3O[C@H](CO)[C@@H](O)[C@H](O)[C@H]3O)[C@@H](O)[C@H]2O)c(=O)[nH]1,pH 7.5,25 °C,,,kcat/Km,790 M⁻¹ s⁻¹
B3 (asnB E349Q),NC(=O)CC[C@H](N)C(=O)O,pH 8,37 °C,"100 mM NaCl, glutaminase site",MgCl2; no ATP,kcat/Km,450 M⁻¹ s⁻¹
B4 (PduO F112H),Nc1ncnc2c1ncn2[C@@H]1O[C@H](COP(=O)(O)OP(=O)(O)OP(=O)(O)O)[C@@H](O)[C@H]1O,pH 8,37 °C,anoxic,cob(I)alamin,kcat/Km,140 ± 10 M⁻¹ s⁻¹
B5 (protein),CC(C)=CCC/C(C)=C/CC/C(C)=C/CO[P@@](=O)(O)OP(=O)(O)O,pH 8,,NaCl 200 mM,FPP 1–100 µM,kcat/Km,889 ± 70 M⁻¹ s⁻¹
B6 (UGT84B1),O=C(O)Cc1c[nH]c2ccccc12,pH 7.5,30 °C,,"UDP-glucose 4 mM, MgSO4 2.5 mM",kcat/Km,70 ± 10 M⁻¹ s⁻¹
B7 (Tcur_2987 W263S),Nc1c(S(=O)(=O)O)cc(Nc2cccc(S(=O)(=O)CCOS(=O)(=O)O)c2)c2c1C(=O)c1ccccc1C2=O,pH 3,,sigmoidal kinetics,H2O2 1 mM,kcat/Km,1.6e+06 M⁻¹ s⁻¹
B8 (TaNK),Nc1ncnc2c1ncn2[C@@H]1O[C@H](COP(=O)(O)OP(=O)(O)OP(=O)(O)O)[C@@H](O)[C@H]1O,pH 8,22 °C,apparent,"inosine, Mg2+",kcat/Km,3700 ± 100 M⁻¹ s⁻¹
"ddh (Ureibacillus thermosphaericus, UniProt G1UII1)",O=C(O)C(=O)Cc1ccccc1,pH 9,30 °C,reductive amination,"NH4Cl 200 mM, NADPH 0.5 mM",kcat/Km,59 ± 6 M⁻¹ s⁻¹
"vioC (Streptomyces vinaceus, UniProt Q6WZB0)",N=C(N)NCCC[C@H](N)C(=O)O,pH 8,30 °C,apparent,alpha-ketoglutarate 1.0 mM,kcat/Km,12800 ± 3050 M⁻¹ s⁻¹

# For quick reference, copied from above:
Substance,substrate,pH,temperature,setting,together with,endpoint,result
"protein (Shewanella denitrificans, UniProt Q12KT8)",Cc1cn([C@H]2C[C@H](O)[C@@H](COP(=O)(O)OP(=O)(O)O[C@H]3O[C@H](C)[C@H](O)[C@H](N)[C@H]3O)O2)c(=O)[nH]c1=O,pH 8.5,,,acetyl-CoA 2 mM,kcat/Km,98000 M⁻¹ s⁻¹
B3 (asnB E349Q),NC(=O)CC[C@H](N)C(=O)O,pH 8,37 °C,"100 mM NaCl, glutaminase site",MgCl2; no ATP,kcat/Km,450 M⁻¹ s⁻¹
